Measured values of several laboratories.
Every numbered part comes from another study and shows a few of its results, in no order. Changes are numbered by the printed parent chain.

Study 1 — method: DHFR PCA, deep sequencing; sample: yeast; together with: (+)-ABA 58 µM; baseline: wild-type fitted maximum; reading: higher = stronger binding; endpoint: relative binding score
Target: ABI1, truncated, D143A, DHFR fusion (Arabidopsis thaliana)
Notes: methotrexate growth selection, single substitutions
Parent: PYL1, truncated, DHFR fusion (Arabidopsis thaliana); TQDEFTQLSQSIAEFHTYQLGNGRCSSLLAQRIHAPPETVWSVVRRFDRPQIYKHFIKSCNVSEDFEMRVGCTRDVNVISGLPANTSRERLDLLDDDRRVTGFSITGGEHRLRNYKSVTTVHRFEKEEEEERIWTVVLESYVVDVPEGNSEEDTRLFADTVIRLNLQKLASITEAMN; partner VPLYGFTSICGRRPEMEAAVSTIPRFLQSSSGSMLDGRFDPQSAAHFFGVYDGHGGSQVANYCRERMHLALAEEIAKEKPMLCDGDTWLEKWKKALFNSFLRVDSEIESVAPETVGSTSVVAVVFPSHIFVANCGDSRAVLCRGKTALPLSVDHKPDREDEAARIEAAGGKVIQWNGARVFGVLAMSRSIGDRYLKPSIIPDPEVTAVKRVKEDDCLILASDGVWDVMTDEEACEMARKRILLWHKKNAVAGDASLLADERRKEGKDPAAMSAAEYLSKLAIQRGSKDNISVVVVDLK
F103A: -9.55%
R99N: 68.2%
C25E: -3.74%
S140T: 10.4%
C60S: 50.6%

Study 2 — method: universal PBM; form: double-stranded DNA, one strand shown; sample: in vitro; concentration: not given; reading: higher = stronger binding; endpoint: E-score
Target: Sal-like protein 4, full length isoform B (SALL4, Homo sapiens, UniProt Q9UJQ4-2, residues 1-616)
Notes: 8-mer, flanks averaged, mean of replicates
Residues (chain): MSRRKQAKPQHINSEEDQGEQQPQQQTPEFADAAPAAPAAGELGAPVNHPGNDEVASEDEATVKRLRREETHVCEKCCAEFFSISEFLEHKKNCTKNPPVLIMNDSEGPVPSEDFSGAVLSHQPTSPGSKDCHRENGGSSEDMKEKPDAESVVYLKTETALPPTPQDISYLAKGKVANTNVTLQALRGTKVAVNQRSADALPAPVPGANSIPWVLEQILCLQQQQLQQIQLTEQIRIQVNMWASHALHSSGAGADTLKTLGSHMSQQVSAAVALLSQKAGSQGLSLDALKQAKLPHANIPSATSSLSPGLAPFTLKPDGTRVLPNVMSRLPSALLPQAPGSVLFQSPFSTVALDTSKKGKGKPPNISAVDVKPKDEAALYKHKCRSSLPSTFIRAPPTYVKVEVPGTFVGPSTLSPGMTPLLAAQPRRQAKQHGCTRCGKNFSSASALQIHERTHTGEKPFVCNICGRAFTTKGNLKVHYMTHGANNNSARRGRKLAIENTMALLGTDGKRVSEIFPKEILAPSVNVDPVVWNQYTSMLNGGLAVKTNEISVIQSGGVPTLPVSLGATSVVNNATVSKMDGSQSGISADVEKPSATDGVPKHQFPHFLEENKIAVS
AACTGCCT: 0.057
ATGAACGG: 0.0415
CGTCATTA: 0.0629
AGCTGAGG: -0.135
GGGGCCTA: -0.321
ATCCTACG: -0.0948

Study 3 — method: RNA Bind-n-Seq; form: RNA; sample: in vitro; concentration: 365 nM; baseline: no-protein control; reading: higher = stronger binding; endpoint: RBNS enrichment (R)
Target: RNA binding protein fox-1 homolog 2, RRM domain, GST-SBP tag (RBFOX2, Homo sapiens, UniProt O43251-10, residues 100-194)
Notes: natural RNA segment, single round, ends assumed
All sequences stand within: GGGAGUUCUACAGUCCGACGAUC … UGGAAUUCUCGGGUGCCAA
Residues (chain): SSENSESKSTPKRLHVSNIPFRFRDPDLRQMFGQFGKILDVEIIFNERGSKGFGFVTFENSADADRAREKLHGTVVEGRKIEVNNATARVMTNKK
CUGUCAGGUUGGUGCGGAAGGGCUAGGAUCCUUGCCGCCCUUCCCUUCGGUGCCGGAACCCUCCCAAUUCCCCUCCCUGGCCCCACAUCCCCAACCCUGCUGCUGGAGUG: 0.388
AUGGCCGCCCCACUCAGGUGUUCGUUGUUACAGUGCUAAUGGAUCCUGGGUGCAGUAGGCGCUGGGUCCUCCUGACCUCUGUUUCACUGUUUGUGGUAAGGUAGCCACAC: 0.688
AAAAAAACAAAGCAACAAAUUAACUAGAUACAGAAUAAUGGAGAACAAGUUGUUAAAACAUUUAAUAUUAUAUAGGAUAUUGCUAAUUGUGUAUAUGUUGGUUUAAUUAA: 0.768
GUUUUUUGAAACACCUCUCACUGCAUCUGAUAUCAGGAAACAAAGAUGAAGGACUUGGCGAACAGAAAGCCCUUCGAGAUCUUGUGUACCCCACCUUCCCACACUGUGAG: 2.14
UAGAGGCUCUUAAAAGUAUUGAAAGACAAUACUGCUGUUAUAUAGCAAGACAUAAACAGAUUAUAAACAUCAGAGCCAUUUGCUUCUCAGUUUACAUUUCUGAUACAUGC: 0.375
UCAGAGAGUCUAUCCUGGUCCCUCUAGUUACGGCAGUCUGUGUCAAGGUGGUCUCUUUUGCUUGCUUCUUUUAAAUGUUUUCCUUUGUAUUUGAUGACAAAUGUUUGUAU: 2.01
GCCGUGAAGUCAUCACCAUCUACUCCUGAGCCCAGUGUCAUCUUGUGGCCUGGAGUCGAGGUCUUGGCCAGGACAUAACAAGCUGUGGUCUGGGGUAACAGCCUCUUCCC: 0.296

Further values, each from its own experiment
PhoQ, residues 284 288 289 292 302 303 SCCLKL
fold induction (PhoP, residues 12 14 15 18 19 LYFRQ (Escherichia coli, UniProt P23836); Sort-seq, item: YFP reporter; E. coli; PhoQ-PhoP variant library, together with: 10 µM Mg2+; baseline: high Mg2+ state, higher = stronger signaling): 2.23

Repeated from above (study 3):
UAGAGGCUCUUAAAAGUAUUGAAAGACAAUACUGCUGUUAUAUAGCAAGACAUAAACAGAUUAUAAACAUCAGAGCCAUUUGCUUCUCAGUUUACAUUUCUGAUACAUGC: 0.375
UCAGAGAGUCUAUCCUGGUCCCUCUAGUUACGGCAGUCUGUGUCAAGGUGGUCUCUUUUGCUUGCUUCUUUUAAAUGUUUUCCUUUGUAUUUGAUGACAAAUGUUUGUAU: 2.01
GCCGUGAAGUCAUCACCAUCUACUCCUGAGCCCAGUGUCAUCUUGUGGCCUGGAGUCGAGGUCUUGGCCAGGACAUAACAAGCUGUGGUCUGGGGUAACAGCCUCUUCCC: 0.296
